Experimental data collected from several papers.
Each numbered part is a random draw from the data of one study; scales do not carry over between parts. Values joined by “and” are separate records of one study, mostly repeats; a detail may differ.

Study 1 — method: competitive binding panel; concentration: 1 µM; baseline: vehicle
Structure (SMILES): CN1CCN(C(=O)c2ccc(NC(=O)Nc3ccc(N(C)c4ccnc(Nc5ccc(CS(C)(=O)=O)cc5)n4)cc3)cc2)CC1
The remaining binding was 44% (ABL2 (Homo sapiens, UniProt P42684)).
For CDK2 (Homo sapiens, UniProt P24941): remaining binding read 87%.
For RIOK3 (Homo sapiens, UniProt O14730): remaining binding read 0%.
PIK3CA (Homo sapiens, UniProt P42336, C420R) — remaining binding: 100%.
It gave 6% for remaining binding (MAP2K4 (Homo sapiens, UniProt P45985); refers to: MEK4).
For WNK3 (Homo sapiens, UniProt Q9BYP7): remaining binding read 93%.
For PIM1 (Homo sapiens, UniProt P11309): remaining binding read 100%.
ZAP70 (Homo sapiens, UniProt P43403) — remaining binding: 65%.
It gave 78% for remaining binding (ULK2 (Homo sapiens, UniProt Q8IYT8)).
The remaining binding was 64% (MAK (Homo sapiens, UniProt P20794)).
It gave 91% for remaining binding (DYRK1B (Homo sapiens, UniProt Q9Y463)).
It gave 80% for remaining binding (NLK (Homo sapiens, UniProt Q9UBE8)).

Study 2 — SMILES: O=C(Nc1ccc(Cl)cc1)c1ccccc1NCc1ccncc1; effect on: enzyme activity; mode: inhibitor; concentration: 0.5 µM; baseline: control
SRC (Homo sapiens, UniProt P12931) — remaining activity: 88.8%.
Cyclin-dependent kinase 3, with cyclin E (CDK3, Homo sapiens, UniProt Q00526) — remaining activity: 87.4%.
The remaining activity was 104% (NEK11 (Homo sapiens, UniProt Q8NG66)).
For FER (Homo sapiens, UniProt P16591): remaining activity read 80.4%.
MATK (Homo sapiens, UniProt P42679) — remaining activity: 99.3%.
FYN (Homo sapiens, UniProt P06241) — remaining activity: 97%.
It gave 91.6% for remaining activity (STK25 (Homo sapiens, UniProt O00506)).
MARK3 (Homo sapiens, UniProt P27448) — remaining activity: 93.1%.
ALK (Homo sapiens, UniProt Q9UM73) — remaining activity: 103%.
It gave 92.7% for remaining activity (HIPK1 (Homo sapiens, UniProt Q86Z02)).
For ITK (Homo sapiens, UniProt Q08881): remaining activity read 94.1%.
LIM domain kinase 1 (LIMK1, Homo sapiens, UniProt P53667) — remaining activity: 83.4%.
For TAOK3 (Homo sapiens, UniProt Q9H2K8): remaining activity read 94.1%.
The remaining activity was 87.2% (NLK (Homo sapiens, UniProt Q9UBE8)).
PASK (Homo sapiens, UniProt Q96RG2) — remaining activity: 97.1%.
The remaining activity was 95.2% (PKN1 (Homo sapiens, UniProt Q16512)).
For CDC42BPA (Homo sapiens, UniProt Q5VT25): remaining activity read 90.5%.
It gave 88% for remaining activity (Insulin receptor (INSR, Homo sapiens, UniProt P06213)).
For PRKX (Homo sapiens, UniProt P51817): remaining activity read 90.5%.
The remaining activity was 97.6% (AKT1 (Homo sapiens, UniProt P31749)).
FGR (Homo sapiens, UniProt P09769) — remaining activity: 83.8%.
It gave 44.8% for remaining activity (FLT4 (Homo sapiens, UniProt P35916)).

Study 3 — cell line: mouse MPNST tumor cells; method: high-content nuclear imaging; refers to: cell number; concentration: 10 µM; time: 12 h; notes: mean of 2 replicates; baseline: plate mean; direction: higher = more cells
With `CC(=O)[C@H]1CC[C@H]2[C@@H]3C[C@H](C)C4=CC(=O)CC[C@]4(C)[C@H]3[C@@H](O)C[C@]12C` the nuclei count was -0.832 z-score.
`O=C(c1cc(S(=O)(=O)Nc2ccccc2F)c(F)cc1Cl)N1CCN2CCC[C@@H]2C1` has a nuclei count of 1.94 z-score.
`O=C(O)COc1ccc(/C=C2\SC(=O)NC2=O)cc1` has a nuclei count of 2.12 z-score.
For `COc1cccc(CCc2ccccc2OCC(CN(C)C)OC(=O)CCC(=O)O)c1` (stereo not shown), the nuclei count was 2.25 z-score.
The nuclei count of `Cc1[nH]c(/C=C2\C(=O)Nc3ccccc32)c(C)c1CCC(=O)O` is reported as -0.675 z-score.
`COc1cc(C(C)=O)ccc1O` gave a nuclei count of 0.559 z-score.
`CC/C(=C(\c1ccc(O)cc1)c1ccc(OCCNC)cc1)c1ccccc1` gave a nuclei count of -6.04 z-score.
`COCCCOc1ccnc(C[S+]([O-])c2nc3ccccc3[nH]2)c1C` (stereo not shown) gave a nuclei count of 2.34 z-score.
`CCCSc1ccc2[nH]c(NC(=O)OC)nc2c1` has a nuclei count of -4.97 z-score and -0.934 z-score.
`C[C@]12CC[C@@H]3c4ccc(OS(=O)(=O)O)cc4CC[C@H]3[C@@H]1CCC2=O` has a nuclei count of 0.304 z-score.
The nuclei count of `COc1cc2c(cc1OC)CN(CCc1ccc(NC(=O)c3cc(OC)c(OC)cc3NC(=O)c3cnc4ccccc4c3)cc1)CC2` is reported as 3.77 z-score.
With `O=C(O)CCC(=O)Nc1ccc(S(=O)(=O)Nc2nccs2)cc1` the nuclei count was 2.22 z-score.

Study 4 — effect on: cell-free assay; method: competition with immobilised ligand; concentration: 1 µM
SMILES: COc1ccc2c(c1)O[C@H](c1ccc(OC)c(OC)c1)C[C@@H]2NC(=O)C1(c2ccc3c(c2)OC(F)(F)O3)CC1
It gave 100% for remaining binding (SGK1 (Homo sapiens, UniProt O00141)).
The remaining binding was 100% (CDK5 (Homo sapiens, UniProt Q00535)).
MAP3K3 (Homo sapiens, UniProt Q99759) — remaining binding: 87%.
It gave 95% for remaining binding (MAK (Homo sapiens, UniProt P20794)).
The remaining binding was 84% (PIP5K1A (Homo sapiens, UniProt Q99755)).
HIPK3 (Homo sapiens, UniProt Q9H422) — remaining binding: 91%.
The remaining binding was 98% (MAPK12 (Homo sapiens, UniProt P53778)).
It gave 100% for remaining binding (Tyrosine-protein kinase ABL1, non-phosphorylated (ABL1, Homo sapiens, UniProt P00519)).
It gave 100% for remaining binding (CSF1R (Homo sapiens, UniProt P07333)).
